Results pooled from the literature.
Each line is one published result; not all experiments were run side by side. ± gives the spread as reported.
BCHE: Cholinesterase (BCHE, Homo sapiens, UniProt P06276)
PIH1D1 residues 1-180: PIH1 domain-containing protein 1, residues 1-180 (PIH1D1, Homo sapiens, UniProt Q9NWS0)
RASA1 SH2 domains: Ras GTPase-activating protein 1, SH2 domains (RASA1, Homo sapiens, UniProt P20936)
SH2D3A SH2 domain: SH2 domain-containing protein 3A, SH2 domain (SH2D3A, Homo sapiens, UniProt Q9BRG2)

CC[C@H](C)[C@@H]1NC(=O)[C@H](Cc2ccccc2)NC(=O)[C@H](Cc2ccc(O)cc2)NC(=O)[C@@H]2CCCN2C(=O)[C@H](Cc2ccccc2)NC(=O)[C@H]([C@@H](C)CC)NC(=O)[C@@H]2CCCN2C(=O)[C@H](CC(C)C)NC(=O)[C@H]([C@@H](C)CC)NC(=O)[C@H](CC(C)C)NC(=O)[C@@H](NC(=O)[C@H](CCSC)NC(C)=O)CSSC[C@@H](C(=O)NCC(=O)N[C@@H](CO)C(=O)NCC(=O)N[C@@H](CO)C(=O)N[C@@H](CC(=O)O)C(=O)N[C@@H](Cc2ccc(O)cc2)C(=O)N[C@@H](CCCCN)C(=O)N[C@@H](CC(=O)O)C(=O)N[C@@H](CC(=O)O)C(=O)N[C@@H](CC(=O)O)C(=O)N[C@@H](CC(=O)O)C(=O)N[C@@H](CCCCN)C(N)=O)NC1=O
Kd (Gastric inhibitory polypeptide receptor, extracellular domain (GIPR, Homo sapiens, UniProt P48546); binding, biolayer interferometry; crude peptide, single concentration): 0.039 µM

Nc1ncnc2c1ncn2[C@@H]1O[C@@H]2COP(=O)(O)O[C@H]3[C@@H](O)[C@H](n4cnc5c(N)ncnc54)O[C@@H]3COP(=O)(O)O[C@H]3[C@@H](O)[C@H](n4cnc5c(N)ncnc54)O[C@@H]3COP(=O)(O)O[C@H]2[C@H]1O
Kd (tad1 (Metaclostridioides mangenotii, UniProt P0DW61)): ~0.0098 µM

CC[C@H](C)[C@H](NC(=O)[C@H](Cc1c[nH]c2ccccc12)NC(=O)[C@H](C)NC(=O)[C@H](C)NC(=O)[C@H](Cc1ccc(O)cc1)NC(=O)[C@@H](N)CO)C(=O)N[C@@H](CC(=O)O)C(=O)N[C@H](C(=O)N[C@@H](CCC(=O)O)C(=O)N[C@@H](CO)C(=O)N[C@@H](CC(C)C)C(=O)O)C(C)C
Kd (Serine protease HTRA1, PDZ domain (Homo sapiens, UniProt Q92743); isothermal titration calorimetry; isolated PDZ domain; pH 8.0): 39.2 µM

O=C(NCCN1CCC2(CC1)C(=O)NCN2c1cccc(F)c1)c1ccc(F)c(F)c1
IC50 (BCHE; inhibitor): 1.24 ± 0.28 µM

CC(C)C[C@H](NC(=O)[C@H](CC(=O)O)NC(=O)[C@H](COP(=O)(O)O)NC(=O)[C@H](CC(=O)O)NC(=O)[C@H](CO)NC(=O)CNC(=O)[C@H](C)NC(=O)[C@@H](N)Cc1ccc(O)cc1)C(=O)N[C@@H](CC(=O)O)C(=O)N[C@@H](COP(=O)(O)O)C(=O)N[C@@H](CC(=O)O)C(=O)N[C@@H](CC(=O)O)C(=O)N[C@@H](CCC(=O)O)C(=O)N[C@@H](Cc1ccccc1)C(=O)N[C@H](C(=O)N1CCC[C@H]1C(=O)N[C@@H](Cc1ccc(O)cc1)C(N)=O)C(C)C
Kd (PIH1D1 residues 1-180; ITC; pH 8.0, 20 °C, together with: phosphopeptide): 1.5 ± 0.2 µM

CC[C@H](C)[C@H](NC(=O)[C@H](Cc1ccc(OP(=O)(O)O)cc1)NC(=O)[C@H](CCC(=O)O)NC(=O)[C@@H]1CCCN1C(=O)[C@@H](NC(=O)[C@@H]1CCCN1C(=O)[C@H](CC(C)C)NC(=O)[C@H](Cc1ccccc1)NC(=O)[C@@H](NC(=O)[C@H](CC(=O)O)NC(=O)[C@H](CC(=O)O)NC(=O)c1ccc2c(c1)C(=O)OC21c2ccc(N(C)C)cc2Oc2cc(N(C)C)ccc21)[C@@H](C)O)C(C)C)C(=O)N[C@@H](CC(N)=O)C(=O)N[C@@H](CCC(N)=O)C(=O)N[C@@H](CO)C(=O)N[C@H](C(=O)N1CCC[C@H]1C(=O)N[C@@H](CCCCN)C(=O)N[C@@H](CC(=O)O)C(=O)O)C(C)C
Kd (RASA1 SH2 domains; binding): 0.18 µM

NCCc1c[nH]cn1
Kd (commercial monoclonal antibody; lower = stronger binding): 0.0003 ± 0.0001 µM

CC[C@H](C)[C@H](NC(=O)[C@H](CC(=O)O)NC(=O)[C@H](C)NC(=O)[C@H](Cc1ccc(O)cc1)NC(=O)[C@H](CCCCN)NC(=O)c1ccc2c(c1)C(=O)OC21c2ccc(N(C)C)cc2Oc2cc(N(C)C)ccc21)C(=O)N[C@@H](CCC(=O)O)C(=O)N[C@@H](CO)C(=O)N[C@@H](CO)C(=O)N[C@@H](CC(N)=O)C(=O)N[C@@H](Cc1ccc(OP(=O)(O)O)cc1)C(=O)N[C@@H](CCSC)C(=O)N[C@@H](C)C(=O)N1CCC[C@H]1C(=O)N[C@@H](Cc1ccc(O)cc1)C(=O)N[C@@H](CC(=O)O)C(=O)N[C@@H](CC(N)=O)C(=O)N[C@@H](Cc1ccc(O)cc1)C(=O)N[C@@H](CC(=O)O)C(=O)O
Kd (Tyrosine-protein kinase ABL1, SH2 domain (ABL1, Homo sapiens, UniProt P00519); binding): 0.432 µM

CN1C2CCCC1CC(NC(=O)c1nn(C)c3ccccc13)C2 (stereo not shown)
Kd (Soluble acetylcholine receptor (Aplysia californica, UniProt Q8WSF8, K160T/Q74R/S111E/V159L/W164Y); homologous radioligand competition): 7.34 ± 2 µM

CC(C)C[C@H](NC(=O)[C@H](CC(=O)O)NC(=O)[C@H](CO)NC(=O)[C@H](CC(=O)O)NC(=O)[C@H](CO)NC(=O)CNC(=O)[C@H](C)NC(=O)[C@@H](N)Cc1ccc(O)cc1)C(=O)N[C@@H](CC(=O)O)C(=O)N[C@@H](COP(=O)(O)O)C(=O)N[C@@H](CC(=O)O)C(=O)N[C@@H](CC(=O)O)C(=O)N[C@@H](CCC(=O)O)C(=O)N[C@@H](Cc1ccccc1)C(=O)N[C@H](C(=O)N1CCC[C@H]1C(=O)N[C@@H](Cc1ccc(O)cc1)C(=O)O)C(C)C
Kd (PIH1D1 residues 1-180; ITC; pH 8.0, 20 °C, together with: phosphopeptide): 3.1 ± 0.6 µM

CC(C)[C@H](N)C(=O)N1CCC[C@H]1C(=O)N[C@@H](COP(=O)(O)O)C(=O)N[C@@H](CCC(N)=O)C(=O)N[C@@H](CO)C(=O)N[C@@H](Cc1ccccc1)C(=O)N1CCC[C@H]1C(=O)N[C@@H](C)C(=O)N1CCC[C@H]1C(=O)N[C@@H](CCCNC(=N)N)C(=O)N[C@@H](COP(=O)(O)O)C(=O)N[C@@H](CCC(N)=O)C(=O)N[C@@H](CCC(N)=O)C(=O)N[C@@H](CCCNC(=N)N)C(=O)N[C@@H](Cc1c[nH]c2ccccc12)C(=O)O
Kd (Serine/threonine-protein phosphatase 4 regulatory subunit 3A, EVH1 domain (Homo sapiens, UniProt Q6IN85); isothermal titration calorimetry; sodium phosphate buffer; pH 7.5, together with: CYB5R4 peptide): 229 ± 11 µM

CC[C@H](C)[C@H](NC(=O)[C@H](Cc1ccc(OP(=O)(O)O)cc1)NC(=O)[C@H](CCC(=O)O)NC(=O)[C@H](Cc1c[nH]cn1)NC(=O)CNC(=O)[C@H](CC(=O)O)NC(=O)[C@H](CO)NC(=O)[C@H](CO)NC(=O)[C@@H](NC(=O)[C@H](CO)NC(=O)[C@H](CCC(=O)O)NC(=O)c1ccc2c(c1)C(=O)OC21c2ccc(N(C)C)cc2Oc2cc(N(C)C)ccc21)C(C)C)C(=O)N[C@@H](Cc1ccc(O)cc1)C(=O)N[C@H](C(=O)N[C@@H](CC(=O)O)C(=O)N1CCC[C@H]1C(=O)N[C@@H](CCSC)C(=O)N[C@@H](CCC(N)=O)C(=O)N[C@@H](CC(=O)O)C(=O)O)C(C)C
Kd (SH2D3A SH2 domain; binding): 1.97 µM

O=C(O)CNC(=O)c1cccnc1
Kd (Protein deacetylase HDAC6, ZnF-UBD domain (HDAC6, Homo sapiens, UniProt Q9UBN7)): > 1000 µM

Nc1ncnc2c1ncn2[C@@H]1O[C@H](COP(=O)(O)OP(=O)(O)O)[C@@H](O)[C@H]1O
Kd (Cell cycle histidine kinase CckA, G318A; cytoplasmic region (Caulobacter vibrioides, UniProt Q9X688, G318A)): 200 µM

CCCN(CCc1ccsc1)C1CCc2c(O)cccc2C1 (stereo not shown)
IC50 (BCHE; inhibitor): 4.01 ± 0.27 µM

CC[C@H](C)[C@H](NC(=O)c1ccc2c(c1)C(=O)OC21c2ccc(N(C)C)cc2Oc2cc(N(C)C)ccc21)C(=O)N[C@@H](CCC(=O)O)C(=O)N[C@@H](CO)C(=O)N[C@@H](CO)C(=O)N[C@@H](CC(N)=O)C(=O)N[C@@H](Cc1ccc(O)cc1)C(=O)N[C@@H](CCSC)C(=O)N[C@@H](C)C(=O)N1CCC[C@H]1C(=O)N[C@@H](Cc1ccc(OP(=O)(O)O)cc1)C(=O)N[C@@H](CC(=O)O)C(=O)N[C@@H](CC(N)=O)C(=O)N[C@@H](Cc1ccc(O)cc1)C(=O)N[C@H](C(=O)N1CCC[C@H]1C(=O)N[C@@H](CO)C(=O)N[C@@H](C)C(=O)N[C@@H](CC(=O)O)C(=O)O)C(C)C
Kd (RASA1 SH2 domains; binding): 0.042 µM

Nc1ncnc2c1ncn2[C@@H]1O[C@H](COP(=O)(O)OP(=O)(O)NP(=O)(O)O)[C@@H](O)[C@H]1O
Kd (N-acetylmannosamine kinase (nanK, Haemophilus influenzae, UniProt Q4QP43, T131V); binding): 37 ± 5.5 µM

O=C1c2ccccc2C(=O)c2ccccc21
Kd (Reaction center protein M chain, QA site (pufM, Cereibacter sphaeroides, UniProt P0C0Y9); QA site binding; LDAO detergent solution; pH 7.8, 298 K, together with: 1 µM reaction centres): 0.2 µM

C[C@H](NC(=O)[C@@H](NC(=O)[C@H](CO)NC(=O)[C@H](Cc1c[nH]cn1)NC(=O)[C@@H]1CCCN1C(=O)[C@H](CC(=O)O)NC(=O)[C@H](CCC(N)=O)NC(=O)[C@H](Cc1ccc(OP(=O)(O)O)cc1)NC(=O)[C@H](Cc1c[nH]cn1)NC(=O)[C@@H]1CCCN1C(=O)[C@H](CC(=O)O)NC(=O)[C@H](CCCNC(=N)N)NC(=O)[C@H](CO)NC(=O)[C@@H]1CCCN1C(=O)[C@H](C)NC(=O)[C@@H]1CCCN1C(=O)[C@H](CC(N)=O)NC(=O)c1ccc2c(c1)C(=O)OC21c2ccc(N(C)C)cc2Oc2cc(N(C)C)ccc21)[C@@H](C)O)C(=O)N[C@@H](CC(=O)O)C(=O)O
Kd (RASA1 SH2 domains; binding): 1.32 µM

CN(CC(=O)O)C(=N)NP(=O)(O)O
Kd (Creatine kinase U-type, mitochondrial (CKMT1A, Homo sapiens, UniProt P12532, E265Q); microscale thermophoresis; pH 7.0, E227Q mutant, no substrate): 227 ± 68 µM

NC(=O)N/N=C/c1ccc([N+](=O)[O-])o1
Kd (Oxygen-insensitive NAD(P)H nitroreductase (nfsB, Escherichia coli K-12, UniProt P38489, K14Q); binding; Escherichia coli): 31 ± 1 µM

CSCC[C@H](NC(=O)CNC(=O)[C@H](Cc1ccccc1)NC(=O)[C@H](CC(=O)O)NC(=O)CNC(=O)c1ccc2c(c1)C(=O)OC21c2ccc(N(C)C)cc2Oc2cc(N(C)C)ccc21)C(=O)N[C@@H](CO)C(=O)N[C@@H](CCCNC(=N)N)C(=O)N[C@@H](CC(=O)O)C(=O)N[C@H](C(=O)N[C@@H](Cc1ccc(OP(=O)(O)O)cc1)C(=O)N[C@@H](CO)C(=O)N[C@H](C(=O)N[C@@H](CC(=O)O)C(=O)N[C@@H](Cc1ccc(O)cc1)C(=O)N[C@@H](Cc1ccc(O)cc1)C(=O)N[C@@H](CCCNC(=N)N)C(=O)N[C@H](C(=O)N[C@@H](CC(=O)O)C(=O)O)C(C)C)[C@@H](C)O)C(C)C
Kd (SH2D3A SH2 domain; binding): 1.7 µM

A few entries again:
CC[C@H](C)[C@H](NC(=O)[C@H](CC(=O)O)NC(=O)[C@H](C)NC(=O)[C@H](Cc1ccc(O)cc1)NC(=O)[C@H](CCCCN)NC(=O)c1ccc2c(c1)C(=O)OC21c2ccc(N(C)C)cc2Oc2cc(N(C)C)ccc21)C(=O)N[C@@H](CCC(=O)O)C(=O)N[C@@H](CO)C(=O)N[C@@H](CO)C(=O)N[C@@H](CC(N)=O)C(=O)N[C@@H](Cc1ccc(OP(=O)(O)O)cc1)C(=O)N[C@@H](CCSC)C(=O)N[C@@H](C)C(=O)N1CCC[C@H]1C(=O)N[C@@H](Cc1ccc(O)cc1)C(=O)N[C@@H](CC(=O)O)C(=O)N[C@@H](CC(N)=O)C(=O)N[C@@H](Cc1ccc(O)cc1)C(=O)N[C@@H](CC(=O)O)C(=O)O
Kd (Tyrosine-protein kinase ABL1, SH2 domain (ABL1, Homo sapiens, UniProt P00519); binding): 0.432 µM
